Results pooled from the literature.
Every numbered part comes from another study and shows a few of its results, in no order. Positions count from the first letter of the parent shown.

Sample 1
Target: UBE2G2 UBC core domain (UniProt P60604)
UniProt P60604, sequence (whole entry, looked up): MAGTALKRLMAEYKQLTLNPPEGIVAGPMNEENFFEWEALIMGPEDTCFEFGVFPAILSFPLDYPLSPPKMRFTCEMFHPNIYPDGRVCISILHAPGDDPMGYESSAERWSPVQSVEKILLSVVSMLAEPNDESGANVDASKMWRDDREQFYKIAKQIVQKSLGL
Technique: yeast two-hybrid
Medium: yeast
Notes: mostly zero background
Reference: not given
Reading: higher = stronger interaction
B1: RFWD3 RING domain (UniProt Q6PCD5); chain ASMDEEEGDTCTICLEQWTNAGDHRLSALRCGHLFGYRCISTWLKGQVRKCPQCNKKARHSDIVV
B2: DTX2 RING domain (UniProt Q86UW9); chain EELKVPPDEDCIICMEKLSTASGYSDVTDSKAIGSLAVGHLTKCSHAFHLLCLLAMYCNGNKDGSLQCPSCKTIYGEKTGTQ
B3: RNF133 RING domain (UniProt Q8WVZ7); chain DEEINPNGDSCVICFERYKPNDIVRILTCKHFFHKNCIDPWILPHGTCPICKCDILKVLGIQ
B4: RNF19A RING domain (UniProt Q9NV58); chain ISKQIGDFIECPLCLLRHSKDRFPDIMTCHHRSCVDCLRQYLRIEISESRVNISCPECTERFNPHDIR
B5: SH3RF1 RING domain (UniProt Q7Z6J0); chain DESALLDLLECPVCLERLDASAKVLPCQHTFCKRCLLGIVGSRNELRCPECRTLVGSGVEEL
Sequence | lacZ reporter activity
B1 (RFWD3 RING domain) | 0
B2 (DTX2 RING domain) | 0
AMYLQENGIDCPKCKFSYALARGGCMHFHCTQCRHQFCSGCYNAFYAKNKC (RNF31 RING domain (UniProt Q96EP0)) | 0
B3 (RNF133 RING domain) | 11300
B4 (RNF19A RING domain) | 0
AVPSGLEENLCKICMDSPIDCVLLECGHMVTCTKCGKRMNECPICRQYVIRAVHVF (RFFL RING domain (UniProt Q8WZ73)) | 11500
GSRLQEINDVCAICYHEFTTSARITPCNHYFHALCLRKWLYIQDTCPMCHQKVYIEDDIK (RNF139 RING domain (UniProt Q8WU17)) | 2100
B5 (SH3RF1 RING domain) | 0

Sample 2
Target: CCNB3, cyclin fold, Cln2 fusion (human)
Technique: yeast growth competition, sequencing
Medium: yeast
Notes: weak parent motif
Reference: not given
Reading: higher = stronger binding
Parent: SAMHD1 docking peptide (human); ASKSRVQLFKDDP; partner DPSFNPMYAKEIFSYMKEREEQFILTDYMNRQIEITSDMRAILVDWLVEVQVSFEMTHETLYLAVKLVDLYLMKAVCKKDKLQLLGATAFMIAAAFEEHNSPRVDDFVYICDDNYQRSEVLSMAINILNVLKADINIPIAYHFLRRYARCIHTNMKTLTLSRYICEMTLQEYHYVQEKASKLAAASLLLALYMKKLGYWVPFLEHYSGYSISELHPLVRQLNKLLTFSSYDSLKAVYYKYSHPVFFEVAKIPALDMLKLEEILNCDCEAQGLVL
Change | normalised enrichment score
ASKSRVQLFKHDP [D11H] | -0.0453
ASKSRVQLFEDDP [K10E] | 0.0994
ASCSRVQLFKDDP [K3C] | 0.0442
ASKSRVQPFKDDP [L8P] | -0.169
ASKSRVKLFKDDP [Q7K] | 0.123
ASKSRVQLFKDMP [D12M] | -0.0139
ASRSRVQLFKDDP [K3R] | 0.0864
ASLSRVQLFKDDP [K3L] | 0.0976
ASKHRVQLFKDDP [S4H] | -0.0206
ASKSRVQLFKDWP [D12W] | -0.135
ASKSRVQLFKQDP [D11Q] | -0.166
ASKSRVQLFYDDP [K10Y] | -0.35
ASKSRVQLFGDDP [K10G] | 0.0804
ASKSRVVLFKDDP [Q7V] | 0.214
ASASRVQLFKDDP [K3A] | 0.0508
ATKSRVQLFKDDP [S2T] | -0.0197

Sample 3
Target: Myc proto-oncogene protein, bHLH-zipper, MAX partner unstated (MYC, Homo sapiens, UniProt P01106, residues 368-449)
UniProt P01106, sequence (368-449, looked up): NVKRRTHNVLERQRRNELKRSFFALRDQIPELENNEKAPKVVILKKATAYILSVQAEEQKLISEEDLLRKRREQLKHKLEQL
Technique: protein-binding microarray
Form: double-stranded DNA, one strand shown
Medium: in vitro
Concentration: not given
Notes: k-mer, scored over probes, only values ≥0.25
Reading: higher = stronger binding
Oligonucleotide | E-score
ATGAGGAC | 0.263
ACATGTCA | 0.295
ACTCATGC | 0.303
GTACACGA | 0.365
GGACCACA | 0.252
ACACATGC | 0.458
CACCGCGC | 0.292
CTCCCCTC | 0.29
CGTGCTTA | 0.388
CGTGACAG | 0.301
ATGGCGCG | 0.256
GCCCCACC | 0.319
CCACGCTC | 0.387

Sample 4
Target: Phosphate system positive regulatory protein PHO4, full length, GST-tagged (PHO4, Saccharomyces cerevisiae, UniProt P07270, residues 1-312)
Technique: competition protein-binding microarray
Form: double-stranded DNA, one strand shown
Medium: in vitro
Concentration: 2 µM
Notes: whole 60-bp probe, lowest competitor level
Together with: Cbf1 competitor, 0.05 µM
Reading: higher = stronger binding
Residues (chain): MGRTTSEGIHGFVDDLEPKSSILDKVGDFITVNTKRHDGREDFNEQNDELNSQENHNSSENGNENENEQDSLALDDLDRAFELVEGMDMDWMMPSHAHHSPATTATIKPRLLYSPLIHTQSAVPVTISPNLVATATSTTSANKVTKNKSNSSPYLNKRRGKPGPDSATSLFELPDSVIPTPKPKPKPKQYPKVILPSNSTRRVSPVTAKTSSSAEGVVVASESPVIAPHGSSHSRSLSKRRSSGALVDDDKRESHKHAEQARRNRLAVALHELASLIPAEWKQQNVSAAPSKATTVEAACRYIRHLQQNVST
Oligonucleotide | fluorescence intensity [a.u.]
TTTCGAGAGCATACCCACGGGTAGGAAAGAAAGAGGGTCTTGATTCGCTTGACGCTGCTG | 7890
TCAGCACCCTTTGGACTCGTGATGGCGTTGAAAGGTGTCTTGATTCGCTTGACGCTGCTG | 7590
TGCGCAACAACTTTTCACGTGTCGTTATGTCTAGAAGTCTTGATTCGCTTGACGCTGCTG | 14500
CTTGCAAACAGCGGCCACGTCGCATCAAGTGGTGGCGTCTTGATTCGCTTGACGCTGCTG | 6310
GTCTTGTCTCATTGAGAAGTGGGTGTCCCCACTTCAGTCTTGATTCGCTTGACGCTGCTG | 3810
CCTAGGACTTTGAAGGGCGTGCTAAGTGGGGAGCCGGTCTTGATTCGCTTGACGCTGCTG | 7970
AAATTACTAAGTTGTCACTCGACTTACCCCGTATGAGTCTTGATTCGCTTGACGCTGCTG | 3310
TAGTATCAAAGTAGGCATGTGGGTTGATACCAACGAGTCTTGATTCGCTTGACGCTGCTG | 11000
AAATTACTAAGTTGAAAGGTGGGTGACGCCGTATGAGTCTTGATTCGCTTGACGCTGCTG | 4120
CATACCCAACCTTTTCACGTGCCATAAGATATTTGTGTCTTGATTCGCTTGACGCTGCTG | 15800
AAATTACTAAGTTTTCACGTGCGTTACCCCGTATGAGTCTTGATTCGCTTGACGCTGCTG | 16900
TAAGGTCATTAAGAACCCGTGACTCGTATCACCAAAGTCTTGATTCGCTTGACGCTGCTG | 5740
ACCTACCCGCTTCATCACATGAACACCGCTTCCTGAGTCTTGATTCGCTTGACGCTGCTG | 5680
GAATGAGGTTGATAACTCGTGGATTTTTTATACCTGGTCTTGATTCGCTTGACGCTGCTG | 7800
TGCGCAACAACTTGCTCGGTGGGTGTATGTCTAGAAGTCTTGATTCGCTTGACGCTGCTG | 4440
GTCCAACAAGTATAACAGGTGATACACATAGAAAGAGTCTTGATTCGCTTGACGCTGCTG | 5130
ATTGTTTGGCTTCGTCACGTGGGTAAGTGCCGGAGAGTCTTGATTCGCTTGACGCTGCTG | 15400
CATTGGTAATGTAACCACGTTTTGAGCCTGAAATGGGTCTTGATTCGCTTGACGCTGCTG | 13100
CATACCCAACCTTGATCGGTGGGTGAAGATATTTGTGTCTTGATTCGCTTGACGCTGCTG | 3580

Sample 5
Target: Histone acetyltransferase KAT6A, both winged helices, GST fusion (KAT6A, Homo sapiens, UniProt Q92794, residues 1-181)
Technique: protein binding microarray
Form: double-stranded DNA, one strand shown
Medium: in vitro
Concentration: not given
Notes: 8-mer, flanks averaged, mean of 2 arrays, mostly near background
Reference: not given
Reading: higher = stronger binding
Residues (chain): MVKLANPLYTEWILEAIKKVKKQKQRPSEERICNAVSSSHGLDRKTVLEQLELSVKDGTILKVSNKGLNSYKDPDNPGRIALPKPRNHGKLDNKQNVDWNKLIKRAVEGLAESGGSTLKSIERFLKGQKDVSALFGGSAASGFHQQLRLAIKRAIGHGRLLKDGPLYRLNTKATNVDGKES
Oligonucleotide | E-score
CCGGCTAC | 0.198
ACTGAGCC | -0.0695
CTATTTTA | 0.0164
AAGCGATG | 0.0657
GAAACCGC | 0.246
CCCCTCAG | -0.157
AGATGGCT | -0.123
AGCACAGC | -0.0544
AATACTGG | -0.185
GCGGTGCC | 0.204
GAACCTTC | -0.0624
ATTAGTTA | -0.0632
CCCTCTAG | -0.256
AACCTCTT | 0.0128
GAGTATCA | -0.0877
ACGCAGAG | -0.092
ACATGAAT | -0.0882
ACGGTGAA | 0.106
GTTCAGCA | -0.292
ATGGTGAG | -0.115
CAACCCCC | -0.151
ATGTAGTC | -0.0584
CCACCAAA | -0.236
AATCCATT | -0.0575
CACTAGGC | -0.00533

Excerpt of the above (sample 1):
Sequence | lacZ reporter activity
B1 (RFWD3 RING domain) | 0
B2 (DTX2 RING domain) | 0
AMYLQENGIDCPKCKFSYALARGGCMHFHCTQCRHQFCSGCYNAFYAKNKC (RNF31 RING domain (UniProt Q96EP0)) | 0
B3 (RNF133 RING domain) | 11300
B4 (RNF19A RING domain) | 0
